{"data": "Published values of several laboratories", "organism": "Leishmania infantum", "note": "Protocols differ between the studies behind these lines. “And” joins repeats or separate records; there may be more than shown. ± marks the error that the study gave."}
{"SMILES": "CCOC(=O)c1c(C#N)c(-c2c[nH]c3cccc(OCc4ccccc4)c23)n(NC(=O)OC(C)(C)C)c1C", "test": "parasite growth", "conditions": "20 µM, 72 h, promastigote", "endpoint": "inhibition", "result": "63% and > 40%"}
{"SMILES": "COC1=CC(=O)c2cc3c(cc2C1=O)CCCC3(C)C", "test system": "intracellular amastigotes, ex vivo mouse splenic explants", "conditions": "72 h", "endpoint": "EC50", "result": "14.2 ± 2.5 µM"}
{"SMILES": "CCOC(=O)c1c(C#N)c(-c2c(C)[nH]c3ccccc23)n(NC(=O)OC(C)(C)C)c1C", "test": "parasite growth", "conditions": "20 µM, 72 h, promastigote", "endpoint": "inhibition", "result": "-48.9%"}
{"SMILES": "CCCCCc1cn(CCCCCCCCCCCOP(=O)([O-])OCC[N+](C)(C)C)nn1", "test system": "THP-1", "conditions": "intracellular amastigotes", "how to read": "relative to: CC50 THP-1 over IC50 amastigotes", "endpoint": "selectivity index", "result": "> 75"}
{"SMILES": "CC(C)=CCCC1=CCC2=C(C1)C(=O)c1ccccc1C2=O", "test system": "promastigotes", "how to read": "relative to: HepG2 CC50 over promastigote EC50", "endpoint": "selectivity index", "result": 3.2}
{"SMILES": "CCOC(=O)c1c(C#N)c(-c2c[nH]c3cccc(Cl)c23)n(NC(=O)OC(C)(C)C)c1C", "test": "parasite growth", "conditions": "20 µM, 72 h, promastigote", "endpoint": "inhibition", "result": "-15.6%"}
{"SMILES": "NNc1n[nH]c(=O)c2ccccc12", "test": "parasite growth, MTT", "conditions": "25 µM, promastigote", "endpoint": "inhibition", "result": "12.3%"}
{"SMILES": "N=C(N)Nc1nc2cc(Cl)ccc2[nH]1", "test": "parasite growth", "conditions": "72 h, promastigote", "endpoint": "EC50", "result": "> 20 µM"}
{"SMILES": "COC(=O)C1C(c2nc3ncccc3[nH]2)=Cc2cc3c(cc2C1c1cc(OC)c(OC)c(OC)c1)OCO3 (centres unmarked)", "test": "parasite growth", "test system": "mouse Splenocyte", "conditions": "48 h, intracellular, amastigote", "endpoint": "EC50", "result": "21.2 µM"}
{"SMILES": "NNc1nnc(NN)c2ccccc12", "test": "parasite growth, MTT", "conditions": "25 µM, promastigote", "endpoint": "inhibition", "result": "9.45%"}
{"SMILES": "CC(C)=CCCC1=CCC2C(=O)c3ccccc3C(=O)C2C1 (centres unmarked)", "test system": "promastigotes", "how to read": "relative to: HepG2 CC50 over promastigote EC50", "endpoint": "selectivity index", "result": 1.2}
{"SMILES": "COC(=O)C1C(C=NO)=Cc2cc3c(cc2C1c1cc(OC)c(OC)c(OC)c1)OCO3 (centres unmarked)", "test": "intracellular amastigote growth, iRFP fluorescence", "test system": "infected mouse splenocyte explants", "conditions": "48 h", "endpoint": "EC50", "result": "59.4 ± 0.8 µM"}
{"SMILES": "CC(=O)Oc1cc(C)c(OC(C)=O)c2c1CC=C(CCC=C(C)C)C2", "test system": "promastigotes", "how to read": "relative to: HepG2 CC50 over promastigote EC50", "endpoint": "selectivity index", "result": "> 18.3"}
{"SMILES": "O=C(Nc1ccc2c(c1)CN(c1ccccc1)C2=O)N1CC[C@H](F)C1", "test": "parasite growth, Giemsa stain", "test system": "primary peritoneal mouse macrophages, MHOM/MA(BE)/67 amastigotes", "conditions": "5 d", "endpoint": "IC50", "result": "> 64 µM"}
{"SMILES": "CCOC(=O)c1c(C(=O)OC)cn(CC(c2cn(C)c3ccccc23)c2cn(C)c3ccccc23)c1C", "test system": "DH82, MHOM/TN/80/IPT1", "conditions": "72 h", "how to read": "relative to: CC50 over IC50", "endpoint": "selectivity index", "result": "> 55"}
{"SMILES": "CCOC(=O)c1c(C#N)c(-c2cn(C)c3ccccc23)n(NC(=O)OC(C)(C)C)c1C", "test system": "MHOM/TN/80/IPT1 promastigotes", "how to read": "relative to: CC50 THP-1 over IC50 promastigotes", "endpoint": "selectivity ratio", "result": 3.7}
{"SMILES": "COc1ccc(S(=O)(=O)Nc2cc(C#N)ccc2OS(=O)(=O)c2ccc(OC)cc2)cc1", "test system": "U-937", "conditions": "10 µM", "how to read": "relative to: untreated", "endpoint": "infected macrophages", "result": "75%"}
{"SMILES": "CCOC(=O)c1c(C#N)c(-c2c[nH]c3cccc(C(=O)OC)c23)n(NC(=O)OC(C)(C)C)c1C", "test": "parasite growth", "conditions": "20 µM, 72 h, promastigote", "endpoint": "inhibition", "result": "-13.9%"}
{"SMILES": "CCOC(=O)c1cn(CC(c2c[nH]c3cc(Br)ccc23)c2c[nH]c3cc(Br)ccc23)c(C)c1C(=O)OC", "test system": "DH82, MHOM/TN/80/IPT1", "conditions": "72 h", "how to read": "relative to: CC50 over IC50", "endpoint": "selectivity index", "result": 1.7}
{"SMILES": "COc1cc(C2c3cc4c(cc3C=C(C=O)C2C(=O)OCC=Cc2ccccc2)OCO4)cc(OC)c1OC (centres unmarked)", "test": "intracellular amastigote growth, iRFP fluorescence", "test system": "infected mouse splenocyte explants", "conditions": "48 h", "endpoint": "EC50", "result": "9.9 ± 0.5 µM"}
{"SMILES": "O=C(Nc1ccc2c(c1)CN(c1ccc(Cl)c(Cl)c1)C2=O)N1CCN(c2ccccc2)CC1", "test": "parasite growth, Giemsa stain", "test system": "primary peritoneal mouse macrophages, MHOM/MA(BE)/67 amastigotes", "conditions": "5 d", "endpoint": "IC50", "result": "> 64 µM"}
{"SMILES": "O=[N+]([O-])/C(Br)=C/c1ccco1", "test": "motility arrest", "test system": "promastigotes", "conditions": "72 h, 26 °C", "endpoint": "minimal parasiticidal concentration", "result": "9.2 ± 0.3 µM"}
{"SMILES": "COc1cc(OC(C)=O)c2cc3c(cc2c1OC(C)=O)CCCC3(C)C", "test system": "intracellular amastigotes, ex vivo mouse splenic explants", "conditions": "72 h", "endpoint": "EC50", "result": "19.3 ± 1.6 µM"}
{"SMILES": "COC(=O)C1C(C=NN=CC2=Cc3cc4c(cc3C(c3cc(OC)c(OC)c(OC)c3)C2C(=O)OC)OCO4)=Cc2cc3c(cc2C1c1cc(OC)c(OC)c(OC)c1)OCO3 (centres unmarked)", "test": "intracellular amastigote growth, iRFP fluorescence", "test system": "infected mouse splenocyte explants", "conditions": "48 h", "endpoint": "EC50", "result": "> 100 µM"}
{"SMILES": "CCNC1=CC(=O)c2cc3c(cc2C1=O)CCCC3(C)C", "test": "parasite growth", "conditions": "72 h, promastigote", "endpoint": "EC50", "result": "19.9 µM"}
{"SMILES": "COc1cc([C@@H]2c3cc4c(cc3C=C(C=O)[C@H]2C(=O)N2CCCC2)OCO4)cc(OC)c1OC", "test": "intracellular amastigote growth, iRFP fluorescence", "test system": "infected mouse splenocyte explants", "conditions": "48 h", "endpoint": "EC50", "result": "> 100 µM"}
{"SMILES": "CCOC1=CC(=O)c2cc3c(cc2C1=O)CCCC3(C)C", "test system": "intracellular amastigotes, ex vivo mouse splenic explants", "conditions": "72 h", "endpoint": "EC50", "result": "14.8 ± 1.9 µM"}
{"SMILES": "CCOC(=O)c1c(C#N)c(-c2c[nH]c3cc(F)ccc23)n(NC(=O)OC(C)(C)C)c1C", "test": "parasite growth", "conditions": "20 µM, 72 h, promastigote", "endpoint": "inhibition", "result": "-29.8%"}
{"SMILES": "COC(=O)C1C(c2nc3cc(OC)ccc3[nH]2)=Cc2cc3c(cc2C1c1cc(OC)c(OC)c(OC)c1)OCO3 (centres unmarked)", "test": "parasite growth", "conditions": "promastigote", "endpoint": "EC50", "result": "34.3 µM"}
{"SMILES": "O=[N+]([O-])/C=C/c1ccco1", "test": "motility arrest", "test system": "promastigotes", "conditions": "72 h, 26 °C", "endpoint": "minimal parasiticidal concentration", "result": "12.6 ± 0.5 µM"}
{"SMILES": "C=CCOC(=O)C1C(C=O)=Cc2cc3c(cc2C1c1cc(OC)c(OC)c(OC)c1)OCO3 (centres unmarked)", "test": "parasite growth", "conditions": "promastigote", "endpoint": "EC50", "result": "57 µM"}
{"SMILES": "O=C(Nc1ccc2c(c1)CN(c1ccccc1)C2=O)N1CCN(c2ccc(F)cc2)CC1", "test": "parasite growth, imaging", "conditions": "intracellular, amastigote", "endpoint": "IC50", "result": "45.2 µM"}
{"note": "Some of these lines once more:"}
{"SMILES": "O=[N+]([O-])/C(Br)=C/c1ccco1", "test": "motility arrest", "test system": "promastigotes", "conditions": "72 h, 26 °C", "endpoint": "minimal parasiticidal concentration", "result": "9.2 ± 0.3 µM"}
{"SMILES": "CCOC(=O)c1c(C#N)c(-c2c[nH]c3cccc(C(=O)OC)c23)n(NC(=O)OC(C)(C)C)c1C", "test": "parasite growth", "conditions": "20 µM, 72 h, promastigote", "endpoint": "inhibition", "result": "-13.9%"}
{"SMILES": "C=CCOC(=O)C1C(C=O)=Cc2cc3c(cc2C1c1cc(OC)c(OC)c(OC)c1)OCO3 (centres unmarked)", "test": "parasite growth", "conditions": "promastigote", "endpoint": "EC50", "result": "57 µM"}
{"SMILES": "COc1ccc(S(=O)(=O)Nc2cc(C#N)ccc2OS(=O)(=O)c2ccc(OC)cc2)cc1", "test system": "U-937", "conditions": "10 µM", "how to read": "relative to: untreated", "endpoint": "infected macrophages", "result": "75%"}
{"SMILES": "CCOC(=O)c1c(C#N)c(-c2cn(C)c3ccccc23)n(NC(=O)OC(C)(C)C)c1C", "test system": "MHOM/TN/80/IPT1 promastigotes", "how to read": "relative to: CC50 THP-1 over IC50 promastigotes", "endpoint": "selectivity ratio", "result": 3.7}
